Experimental data pooled from the literature.
A part holds a random share of what one study measured.

Block 1
Target: Sal-like protein 4, full length isoform A (SALL4, Homo sapiens, UniProt Q9UJQ4, residues 1-1053)
UniProt Q9UJQ4, sequence (whole entry, looked up): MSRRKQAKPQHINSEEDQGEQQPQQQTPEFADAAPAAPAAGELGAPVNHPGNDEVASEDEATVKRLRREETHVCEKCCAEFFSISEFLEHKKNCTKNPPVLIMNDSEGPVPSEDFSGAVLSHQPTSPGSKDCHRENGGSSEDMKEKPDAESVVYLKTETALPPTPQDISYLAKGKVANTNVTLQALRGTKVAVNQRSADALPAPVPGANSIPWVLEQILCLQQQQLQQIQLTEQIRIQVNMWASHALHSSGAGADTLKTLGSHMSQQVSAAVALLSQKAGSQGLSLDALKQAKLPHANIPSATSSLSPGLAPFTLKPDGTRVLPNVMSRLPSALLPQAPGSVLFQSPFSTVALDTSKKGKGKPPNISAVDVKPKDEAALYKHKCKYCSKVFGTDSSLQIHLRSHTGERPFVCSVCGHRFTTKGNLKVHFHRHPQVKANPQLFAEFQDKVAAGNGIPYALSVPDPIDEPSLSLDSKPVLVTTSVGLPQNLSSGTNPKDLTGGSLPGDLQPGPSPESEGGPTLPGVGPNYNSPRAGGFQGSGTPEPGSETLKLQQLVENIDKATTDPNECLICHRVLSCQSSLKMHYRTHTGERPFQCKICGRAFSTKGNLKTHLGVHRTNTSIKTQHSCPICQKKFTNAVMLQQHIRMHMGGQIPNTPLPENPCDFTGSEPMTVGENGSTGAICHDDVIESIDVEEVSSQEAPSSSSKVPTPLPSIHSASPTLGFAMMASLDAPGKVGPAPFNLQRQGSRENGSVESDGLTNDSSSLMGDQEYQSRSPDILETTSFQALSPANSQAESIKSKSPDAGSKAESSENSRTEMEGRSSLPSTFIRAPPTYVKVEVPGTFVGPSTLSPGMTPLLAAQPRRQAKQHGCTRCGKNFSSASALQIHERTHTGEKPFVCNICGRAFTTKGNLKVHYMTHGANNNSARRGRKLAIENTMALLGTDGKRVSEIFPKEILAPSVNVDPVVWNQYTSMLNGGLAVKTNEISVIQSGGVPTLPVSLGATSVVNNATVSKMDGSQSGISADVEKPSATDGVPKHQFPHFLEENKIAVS
Method: universal PBM
Molecule type: double-stranded DNA, one strand shown
Matrix: in vitro
Tested at: 600 nM
Notes: 8-mer, flanks averaged, mean of replicates
Reading: higher = stronger binding
Oligonucleotide	E-score
GGTAGTAA	0.0727
ATGCGGGC	-0.231
ACTGCAGC	-0.0962
ACCCACCA	-0.151
CAGTAACG	0.0477
AATGAGGG	-0.0719
AATAACAC	0.188
TATTGTGA	0.232
CCCACTCG	-0.304

Block 2
Target: Interferon regulatory factor 3, full length, phosphomimetic (IRF3, Homo sapiens, UniProt Q14653, residues 1-427, S386D/S396D/S398D/S402D/T404D/S405D)
Method: protein-binding microarray
Molecule type: double-stranded DNA, one strand shown
Matrix: in vitro
Tested at: 2540 nM top
Notes: 60-bp whole probe
With: salmon DNA 0.4 mg/ml
Relative to: random background probes
Reading: higher = stronger binding
Constant ends, left off below: GCCTAGCAC … GTCTTGATTCGCTTGACGCTGCTG
Residues (chain): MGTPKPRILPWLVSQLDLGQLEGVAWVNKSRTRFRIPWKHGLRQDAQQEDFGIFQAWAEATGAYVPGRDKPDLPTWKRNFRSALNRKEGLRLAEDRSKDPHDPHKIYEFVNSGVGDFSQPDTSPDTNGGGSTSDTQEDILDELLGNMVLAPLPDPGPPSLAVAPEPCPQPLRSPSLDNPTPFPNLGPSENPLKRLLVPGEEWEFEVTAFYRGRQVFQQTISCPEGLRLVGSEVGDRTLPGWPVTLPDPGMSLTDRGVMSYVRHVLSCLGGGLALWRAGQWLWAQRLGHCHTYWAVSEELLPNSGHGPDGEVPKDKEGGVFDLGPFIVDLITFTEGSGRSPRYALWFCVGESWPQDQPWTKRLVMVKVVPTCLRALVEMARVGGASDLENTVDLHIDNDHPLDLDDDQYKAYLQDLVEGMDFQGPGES
Oligonucleotide	fitted relative affinity [z-score]
TTAGGTATCCTTTTCCTTCAGTGCTAG	8.29
TTAGATATCAGGTTCGATTAGTGCTAG	0.955
TCAGTTATCACTTCCAAACTGTGCTAG	2.43
TTAGGTTTCGACACTGGGTTCGTGCTA	2.42
GACGATCTCAGTATCGAGACGTGCTAG	0.851
TCACTTCTGGGCTGTTTAACTGTGCTA	1.01

Block 3
Target: Histone acetyltransferase KAT6A, winged helix 2, GST fusion (KAT6A, Homo sapiens, UniProt Q92794, residues 85-181)
Method: protein binding microarray
Molecule type: double-stranded DNA, one strand shown
Matrix: in vitro
Tested at: not given
Notes: 8-mer, flanks averaged, mean of 2 arrays, mostly near background
Relative to: not given
Reading: higher = stronger binding
Residues (chain): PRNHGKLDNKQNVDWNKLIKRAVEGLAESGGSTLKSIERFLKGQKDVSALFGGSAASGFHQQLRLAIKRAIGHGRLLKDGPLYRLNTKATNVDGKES
Oligonucleotide	E-score
CTTGACTA	-0.0341
ACTAGTAG	-0.109
ATTTAGTG	0.0982
ACACTCCA	-0.0926
ATCTTCGC	0.0292

Other studies, line by line
Substance	target	test	system	conditions	scale	endpoint	value
PhoQ, residues 284 288 289 292 302 303 ALSMDL	PhoP, residues 12 14 15 18 19 LFHKL (Escherichia coli, UniProt P23836)	Sort-seq, refers to: YFP reporter	E. coli	PhoQ-PhoP variant library, with: 10 µM Mg2+	relative to: high Mg2+ state, higher = stronger signaling	fold induction	0.782
